Measurements from different studies.
Lines come from different studies, so protocols differ. Numbers after ± are the reported error.
Mc1r: Melanocyte-stimulating hormone receptor (Mc1r, Mus musculus, UniProt Q01727)
Sequence of UniProt Q01727 (whole entry, looked up): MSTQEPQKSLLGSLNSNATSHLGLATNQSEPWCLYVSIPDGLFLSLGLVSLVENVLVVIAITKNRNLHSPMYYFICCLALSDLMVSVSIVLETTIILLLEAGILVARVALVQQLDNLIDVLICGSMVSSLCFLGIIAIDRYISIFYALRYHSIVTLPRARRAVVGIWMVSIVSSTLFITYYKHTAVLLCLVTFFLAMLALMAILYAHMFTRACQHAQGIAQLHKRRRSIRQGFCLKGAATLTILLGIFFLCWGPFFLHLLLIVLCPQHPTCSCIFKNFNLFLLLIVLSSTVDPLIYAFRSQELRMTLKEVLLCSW
DRD2: D(2) dopamine receptor (DRD2, Homo sapiens, UniProt P14416)
Sequence of UniProt P14416 (whole entry, looked up): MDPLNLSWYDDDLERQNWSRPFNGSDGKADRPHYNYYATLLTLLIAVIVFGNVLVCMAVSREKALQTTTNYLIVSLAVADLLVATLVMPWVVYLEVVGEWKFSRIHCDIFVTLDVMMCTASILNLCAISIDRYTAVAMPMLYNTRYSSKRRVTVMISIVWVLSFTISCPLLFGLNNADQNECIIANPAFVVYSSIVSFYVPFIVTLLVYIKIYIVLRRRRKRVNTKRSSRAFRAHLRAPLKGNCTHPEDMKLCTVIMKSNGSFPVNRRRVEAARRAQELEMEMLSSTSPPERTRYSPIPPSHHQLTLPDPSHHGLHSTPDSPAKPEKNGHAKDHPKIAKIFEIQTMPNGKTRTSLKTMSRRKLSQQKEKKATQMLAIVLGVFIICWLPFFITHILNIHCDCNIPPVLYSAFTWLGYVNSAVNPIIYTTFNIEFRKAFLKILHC
Ptger2: Prostaglandin E2 receptor EP2 subtype (Ptger2, Rattus norvegicus, UniProt Q62928)
Sequence of UniProt Q62928 (whole entry, looked up): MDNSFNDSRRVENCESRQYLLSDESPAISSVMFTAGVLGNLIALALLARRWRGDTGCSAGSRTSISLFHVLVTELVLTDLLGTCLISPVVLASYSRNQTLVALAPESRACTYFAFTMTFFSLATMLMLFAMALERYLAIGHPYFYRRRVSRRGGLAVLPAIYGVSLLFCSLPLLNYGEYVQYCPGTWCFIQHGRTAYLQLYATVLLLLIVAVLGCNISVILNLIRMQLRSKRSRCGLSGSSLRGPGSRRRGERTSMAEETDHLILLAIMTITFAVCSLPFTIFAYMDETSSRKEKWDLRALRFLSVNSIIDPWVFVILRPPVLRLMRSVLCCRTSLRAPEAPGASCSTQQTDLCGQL
Sequence of UniProt Q9NR97 (whole entry, looked up): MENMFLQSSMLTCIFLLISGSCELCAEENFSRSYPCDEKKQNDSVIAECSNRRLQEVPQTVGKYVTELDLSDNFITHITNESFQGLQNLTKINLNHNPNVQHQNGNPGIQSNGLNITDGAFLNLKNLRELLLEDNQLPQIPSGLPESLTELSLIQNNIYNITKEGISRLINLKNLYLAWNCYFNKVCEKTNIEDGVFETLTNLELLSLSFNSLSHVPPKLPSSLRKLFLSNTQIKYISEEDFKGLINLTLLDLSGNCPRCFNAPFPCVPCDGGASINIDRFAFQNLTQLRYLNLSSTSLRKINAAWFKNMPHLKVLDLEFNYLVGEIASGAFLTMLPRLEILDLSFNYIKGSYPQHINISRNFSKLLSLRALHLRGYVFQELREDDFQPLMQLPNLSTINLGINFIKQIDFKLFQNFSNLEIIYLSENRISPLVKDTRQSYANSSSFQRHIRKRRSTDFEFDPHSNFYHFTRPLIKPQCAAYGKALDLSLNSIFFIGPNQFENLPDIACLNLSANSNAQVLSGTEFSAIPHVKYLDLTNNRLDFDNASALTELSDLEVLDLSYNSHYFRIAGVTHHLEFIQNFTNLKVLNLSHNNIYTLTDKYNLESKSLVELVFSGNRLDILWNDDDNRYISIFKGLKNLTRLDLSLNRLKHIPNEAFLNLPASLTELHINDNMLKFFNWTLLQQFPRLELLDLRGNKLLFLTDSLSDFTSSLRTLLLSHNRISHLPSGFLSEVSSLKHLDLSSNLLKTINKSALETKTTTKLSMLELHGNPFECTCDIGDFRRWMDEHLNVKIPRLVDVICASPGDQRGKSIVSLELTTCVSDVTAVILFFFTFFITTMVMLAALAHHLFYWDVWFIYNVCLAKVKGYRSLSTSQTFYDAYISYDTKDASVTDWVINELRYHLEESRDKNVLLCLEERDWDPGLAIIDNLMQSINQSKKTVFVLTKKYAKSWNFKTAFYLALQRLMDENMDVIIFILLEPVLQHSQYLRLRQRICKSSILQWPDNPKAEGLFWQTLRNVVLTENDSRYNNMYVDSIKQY
Sequence of UniProt Q6B856 (whole entry, looked up): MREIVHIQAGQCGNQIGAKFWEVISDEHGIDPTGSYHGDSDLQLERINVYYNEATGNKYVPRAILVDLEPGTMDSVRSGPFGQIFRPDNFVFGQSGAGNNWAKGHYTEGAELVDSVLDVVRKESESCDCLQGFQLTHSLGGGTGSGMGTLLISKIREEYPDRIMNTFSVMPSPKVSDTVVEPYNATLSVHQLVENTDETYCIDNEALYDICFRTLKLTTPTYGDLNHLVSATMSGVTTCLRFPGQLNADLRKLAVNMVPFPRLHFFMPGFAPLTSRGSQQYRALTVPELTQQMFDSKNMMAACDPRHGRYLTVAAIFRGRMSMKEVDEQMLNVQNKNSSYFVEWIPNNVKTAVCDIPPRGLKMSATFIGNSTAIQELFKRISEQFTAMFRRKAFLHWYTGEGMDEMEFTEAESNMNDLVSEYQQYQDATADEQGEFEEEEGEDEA
Sequence of UniProt Q6DWJ6 (whole entry, looked up): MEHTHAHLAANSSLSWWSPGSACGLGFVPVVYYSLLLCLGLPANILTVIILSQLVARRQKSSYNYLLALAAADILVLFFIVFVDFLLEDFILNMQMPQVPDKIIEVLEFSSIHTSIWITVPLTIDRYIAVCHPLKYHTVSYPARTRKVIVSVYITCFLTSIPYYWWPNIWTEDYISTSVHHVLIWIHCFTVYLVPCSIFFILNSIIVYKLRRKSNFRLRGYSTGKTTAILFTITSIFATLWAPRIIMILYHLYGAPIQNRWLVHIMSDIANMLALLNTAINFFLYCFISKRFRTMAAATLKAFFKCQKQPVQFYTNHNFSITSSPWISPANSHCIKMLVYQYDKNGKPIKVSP
Sequence of UniProt P18825 (whole entry, looked up): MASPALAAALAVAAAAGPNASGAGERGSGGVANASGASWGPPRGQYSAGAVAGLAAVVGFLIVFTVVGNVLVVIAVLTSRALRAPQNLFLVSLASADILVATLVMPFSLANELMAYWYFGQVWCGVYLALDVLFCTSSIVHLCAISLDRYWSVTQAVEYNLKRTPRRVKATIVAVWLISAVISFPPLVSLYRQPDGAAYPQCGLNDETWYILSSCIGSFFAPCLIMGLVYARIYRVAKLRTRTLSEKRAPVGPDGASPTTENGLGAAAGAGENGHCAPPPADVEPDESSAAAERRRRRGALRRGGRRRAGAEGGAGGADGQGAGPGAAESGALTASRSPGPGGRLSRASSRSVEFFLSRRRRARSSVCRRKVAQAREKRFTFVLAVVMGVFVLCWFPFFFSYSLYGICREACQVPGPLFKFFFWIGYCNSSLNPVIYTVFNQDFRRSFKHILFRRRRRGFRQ
Sequence of UniProt P23385 (whole entry, looked up): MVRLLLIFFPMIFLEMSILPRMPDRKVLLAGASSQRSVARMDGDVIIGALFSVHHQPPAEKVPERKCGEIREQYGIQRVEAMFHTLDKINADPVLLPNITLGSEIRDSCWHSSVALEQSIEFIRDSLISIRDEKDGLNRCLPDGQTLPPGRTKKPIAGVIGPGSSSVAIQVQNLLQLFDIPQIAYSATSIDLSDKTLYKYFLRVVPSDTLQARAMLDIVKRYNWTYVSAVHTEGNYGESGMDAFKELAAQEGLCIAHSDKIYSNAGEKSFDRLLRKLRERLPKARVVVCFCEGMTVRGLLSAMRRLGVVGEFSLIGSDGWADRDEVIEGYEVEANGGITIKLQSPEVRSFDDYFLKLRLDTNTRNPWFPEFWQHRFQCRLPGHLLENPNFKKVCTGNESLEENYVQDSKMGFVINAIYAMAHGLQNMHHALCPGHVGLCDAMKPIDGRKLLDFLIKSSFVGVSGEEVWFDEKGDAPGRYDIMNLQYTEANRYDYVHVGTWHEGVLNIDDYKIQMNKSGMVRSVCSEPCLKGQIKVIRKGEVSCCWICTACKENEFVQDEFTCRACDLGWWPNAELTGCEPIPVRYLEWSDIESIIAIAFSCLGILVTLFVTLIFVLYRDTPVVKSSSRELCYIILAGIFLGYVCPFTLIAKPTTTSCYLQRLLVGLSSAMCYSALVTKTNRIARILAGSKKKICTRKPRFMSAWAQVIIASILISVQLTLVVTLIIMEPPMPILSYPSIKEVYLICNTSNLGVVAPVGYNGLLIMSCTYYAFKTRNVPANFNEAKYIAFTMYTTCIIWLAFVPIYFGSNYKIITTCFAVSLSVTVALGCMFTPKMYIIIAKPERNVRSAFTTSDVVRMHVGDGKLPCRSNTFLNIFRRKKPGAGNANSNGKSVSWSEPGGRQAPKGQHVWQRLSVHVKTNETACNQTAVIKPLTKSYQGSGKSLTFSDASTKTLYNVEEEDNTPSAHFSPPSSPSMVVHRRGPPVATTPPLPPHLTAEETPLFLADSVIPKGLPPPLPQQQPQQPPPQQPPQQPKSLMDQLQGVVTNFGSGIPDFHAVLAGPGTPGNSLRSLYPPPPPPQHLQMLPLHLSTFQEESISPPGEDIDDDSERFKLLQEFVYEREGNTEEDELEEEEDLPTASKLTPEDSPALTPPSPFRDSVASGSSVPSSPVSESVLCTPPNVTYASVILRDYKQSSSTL
Sequence of UniProt P25090 (whole entry, looked up): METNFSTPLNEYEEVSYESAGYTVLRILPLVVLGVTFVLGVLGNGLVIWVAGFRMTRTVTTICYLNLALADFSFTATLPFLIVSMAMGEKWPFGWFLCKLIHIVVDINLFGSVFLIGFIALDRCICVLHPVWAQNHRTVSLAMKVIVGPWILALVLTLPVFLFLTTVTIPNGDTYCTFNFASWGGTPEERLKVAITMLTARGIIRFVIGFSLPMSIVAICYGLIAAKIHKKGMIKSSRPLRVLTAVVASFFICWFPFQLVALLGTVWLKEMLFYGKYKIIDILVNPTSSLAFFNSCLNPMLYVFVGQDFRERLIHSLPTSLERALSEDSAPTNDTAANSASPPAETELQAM

Molecule	target	test	system	setting	EC50
CSCC[C@H](NC(=O)[C@H](CO)NC(=O)[C@H](Cc1ccc(O)cc1)NC(=O)[C@H](CO)NC(C)=O)C(=O)N[C@@H](CCC(=O)O)C(=O)N[C@@H](Cc1c[nH]cn1)C(=O)N[C@@H](Cc1ccccc1)C(=O)N[C@@H](CCCNC(=N)N)C(=O)N[C@@H](Cc1c[nH]c2ccccc12)C(=O)NCC(=O)N[C@@H](C)C(=O)N1CCC[C@H]1C(=O)N[C@H](C(N)=O)C(C)C	Mc1r	–	–	–	12 ± 3.4 nM
NC[C@H](O)c1ccc(O)c(O)c1	ADRA2C (Homo sapiens, UniProt P18825)	G protein activation, agonist, BRET, refers to: Gαi2	HEK293T, transfected	Emax below 50%	0.4 ± 0.2 nM
CC[C@@H]1NC(=O)[C@H](Cc2ccccc2)NC(=O)[C@H](Cc2ccccc2)NC(=O)[C@H](CCCNC(=N)N)NC(=O)[C@@H]2CCCN2C(=O)[C@H]2CCCN2C(=O)[C@H](Cc2ccccc2)NC(=O)[C@H](C)NC1=O	Melanocortin receptor 3 (Mus musculus, UniProt P33033)	–	–	–	> 100000 nM
CC(C)c1nc2cc(OCCCCN3CCN(c4cccc5c4OCCO5)CC3)ccc2s1	DRD2	cAMP, agonist, luciferase	–	–	< 10 nM
N=C(N)NCCC[C@H](NC(=O)[C@H](Cc1ccccc1)NC(=O)[C@@H](N)Cc1cnc[nH]1)C(=O)N[C@@H](Cc1c[nH]c2ccccc12)C(=O)O	GPR139 (Homo sapiens, UniProt Q6DWJ6)	calcium signal, agonist, fluorescence	–	–	3980 nM
CCC[C@H](C(=O)Nc1ccc(Br)cc1)n1nc(C)cc(Cc2cccc(OC)c2)c1=O	FPR2 (Homo sapiens, UniProt P25090)	β-arrestin recruitment, agonist	–	–	6800 nM
CSCC[C@H](NC(=O)[C@H](CO)NC(=O)[C@H](Cc1ccc(O)cc1)NC(=O)[C@H](CO)NC(C)=O)C(=O)N[C@@H](CCC(=O)O)C(=O)N[C@@H](Cc1c[nH]cn1)C(=O)N[C@@H](Cc1ccccc1)C(=O)N[C@@H](CCCNC(=N)N)C(=O)N[C@@H](C)C(=O)NCC(=O)N[C@@H](CCCCN)C(=O)N1CCC[C@H]1C(=O)N[C@H](C(N)=O)C(C)C	Mc1r	–	–	–	17700 ± 4860 nM
CCC#CC[C@H](C)[C@H](O)/C=C/[C@H]1CC(F)(F)C(=O)N1CCCCCCC(=O)O	Ptger2	cAMP, agonist	–	–	> 10000 nM
Cc1nc(-c2ccc(OCC(C)C)c(C#N)c2)sc1C(=O)NC1CCOCC1	Grm2 (Rattus norvegicus, UniProt P31421)	positive allosteric modulator, thallium flux	HEK293 GIRK	added: EC20 glutamate	4800 nM
Cc1ccc2cccc(N3CCN(CCCCOc4ccc5sc(C)nc5c4)CC3)c2n1	DRD2	cAMP, agonist, luciferase	–	–	15 nM
N=C(NCCCCCCCCCCNC(N)=O)NCCCc1c[nH]cn1	HRH4 (Homo sapiens, UniProt Q9H3N8)	GTPγS binding, agonist	–	cell membranes	36300 nM
O=c1c(O)c(-c2ccc(O)c(O)c2)oc2cc(O)cc(O)c12	Kcnh1 (Mus musculus, UniProt Q60603)	V1/2 shift, inside-out patch clamp	Xenopus oocytes	–	2400 ± 1000 nM
COc1ccccc1N1CCN(CCCCOc2ccc3sc(C)nc3c2)CC1	DRD2	cAMP, agonist, luciferase	–	–	68 nM
CCCC[C@H](NC(=O)[C@H](CO)NC(=O)[C@H](Cc1ccc(O)cc1)NC(=O)[C@H](CO)NC(C)=O)C(=O)N[C@@H](CCC(=O)O)C(=O)N[C@@H](Cc1c[nH]cn1)C(=O)N[C@H](Cc1ccccc1)C(=O)N[C@@H](CCCNC(=N)N)C(=O)N[C@@H](Cc1c[nH]c2ccccc12)C(=O)N[C@@H](C)C(=O)N[C@@H](CCCCN)C(=O)N1CCC[C@H]1C(=O)N[C@H](C(N)=O)C(C)C	Mc1r	–	–	–	0.037 ± 0.012 nM
Cc1ccc(S(=O)(=O)N2CCC[C@H]2c2ccc(F)cc2)cc1 (racemic)	Grm1 (Rattus norvegicus, UniProt P23385)	calcium response, positive allosteric modulator	BHK expressing mGluR1a	added: glutamate EC20	186 ± 45.6 nM
C[C@H](C(=O)O)c1ccc(-c2ccccc2)c(F)c1	FABP1 (Homo sapiens, UniProt P07148)	DAUDA displacement, fluorescence	–	added: FABP1 0.3 µM, DAUDA 0.5 µM	3300 ± 1400 nM
CCCC[C@H](NC(=O)[C@H](C)NC(=O)[C@H](Cc1ccc(O)cc1)NC(=O)[C@H](CO)NC(C)=O)C(=O)N[C@@H](CCC(=O)O)C(=O)N[C@@H](Cc1c[nH]cn1)C(=O)N[C@H](Cc1ccccc1)C(=O)N[C@@H](CCCNC(=N)N)C(=O)N[C@@H](Cc1c[nH]c2ccccc12)C(=O)NCC(=O)N[C@@H](CCCCN)C(=O)N1CCC[C@H]1C(=O)N[C@H](C(N)=O)C(C)C	Mc1r	–	–	–	0.024 ± 0.004 nM
CCCCOc1cc2ccccc2nc1N	TLR8 (Homo sapiens, UniProt Q9NR97)	reporter gene, agonist	–	–	2180 nM
CCc1nc2cc(OCCCCN3CCN(c4cccc5ccc(C)nc45)CC3)ccc2s1	DRD2	cAMP, agonist, luciferase	–	–	62 nM
CCC1=C(O)c2c(oc(-c3csc4ccc(O)cc34)cc2=O)C(CC)(CC)C1=O	Tubulin alpha-1B chain/TUBB2B (Bos taurus, UniProt P81947+Q6B856)	–	–	–	7500 nM
CC(=O)N[C@@H](CO)C(=O)N[C@@H](Cc1ccc(O)cc1)C(=O)N[C@@H](CO)C(=O)N[C@@H](C)C(=O)N[C@@H](CCC(=O)O)C(=O)N[C@@H](Cc1c[nH]cn1)C(=O)N[C@H](Cc1ccccc1)C(=O)N[C@@H](CCCNC(=N)N)C(=O)N[C@@H](Cc1c[nH]c2ccccc12)C(=O)NCC(=O)N[C@@H](CCCCN)C(=O)N1CCC[C@H]1C(=O)N[C@H](C(N)=O)C(C)C	Mc1r	–	–	–	0.11 ± 0.02 nM
O=c1[nH]c2cc(OCCCCN3CCN(c4cccc(Cl)c4Cl)CC3)ccc2s1	DRD2	cAMP, agonist, luciferase	–	–	5.2 nM
CCCCC[C@H](O)/C=C/[C@H]1CCC(=O)[C@@H]1C/C=C\CCCC(=O)O	Ptger2	reporter gene, agonist	–	–	38.7 nM
BzATP	P2X purinoceptor 7 (P2RX7, Homo sapiens, UniProt Q99572)	calcium influx, agonist, Fura-2	1321N1 expressing human P2X7	–	20400 nM

Excerpt of the above:
Molecule	target	test	system	setting	EC50
N=C(N)NCCC[C@H](NC(=O)[C@H](Cc1ccccc1)NC(=O)[C@@H](N)Cc1cnc[nH]1)C(=O)N[C@@H](Cc1c[nH]c2ccccc12)C(=O)O	GPR139 (Homo sapiens, UniProt Q6DWJ6)	calcium signal, agonist, fluorescence	–	–	3980 nM
CC[C@@H]1NC(=O)[C@H](Cc2ccccc2)NC(=O)[C@H](Cc2ccccc2)NC(=O)[C@H](CCCNC(=N)N)NC(=O)[C@@H]2CCCN2C(=O)[C@H]2CCCN2C(=O)[C@H](Cc2ccccc2)NC(=O)[C@H](C)NC1=O	Melanocortin receptor 3 (Mus musculus, UniProt P33033)	–	–	–	> 100000 nM
